Published values pooled from the literature.
Every numbered part comes from another study and shows a few of its results, in no order.

Sample 1
Target: RNA binding protein fox-1 homolog 2, RRM domain, GST-SBP tag (RBFOX2, Homo sapiens, UniProt O43251-10, residues 100-194)
Technique: RNA Bind-n-Seq
Form: RNA
Sample: in vitro
Tested at: 365 nM
Setting: natural RNA segment, single round, ends assumed
Reference: no-protein control
Direction: higher = stronger binding
Construct (chain): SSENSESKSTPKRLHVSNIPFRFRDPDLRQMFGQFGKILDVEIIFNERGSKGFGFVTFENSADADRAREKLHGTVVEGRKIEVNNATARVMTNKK
Oligonucleotide | RBNS enrichment (R)
GGGAGUUCUACAGUCCGACGAUCUUGUUUCAGUUCUGUCUCCCAGAUAAUGUGAAAACGGUCCAGGAGAAGGCAGCUUCCUAUAUGCAGCGUGUGCUUUCUUAUUCUUAUUUUUAAUAUAUGACAGUUAUUUGUGGAAUUCUCGGGUGCCAA | 0.825
GGGAGUUCUACAGUCCGACGAUCUGAGGCCAAGAUGAGAAGUGACUCUCUCAAGGUCACACAGAUAGUGAUAGAACAAGAGCCCAGGCUUCCUGUUUCCAAGUCACCUGUGUUUCCUGGGACCAAAUAAUGAGUGGAAUUCUCGGGUGCCAA | 0.21
GGGAGUUCUACAGUCCGACGAUCGCAAGCCCCCAGCCCUUCCUGAAGCCCGUGCUCUGCCCAGCACUCGGAUGCUGCUCUUUUCUUGCUUACCAACCAACUCCAUUUGCUUGUGAUGGCCCCAUUUUUACAGUUGGAAUUCUCGGGUGCCAA | 11.3
GGGAGUUCUACAGUCCGACGAUCUUUGAAACAGCAUUGUGACCACCAGGACAUCAUCGUAAAGUCUGUCUUGAAGGUGUUCCCCACCCCGCCCAGGGGCUUGCACUUGGAGGACUACAGCACACCUGGUUUCCUGGAAUUCUCGGGUGCCAA | 0.424

Sample 2
Target: Histone acetyltransferase KAT6A, winged helix 2, GST fusion (KAT6A, Homo sapiens, UniProt Q92794, residues 85-181)
Technique: protein binding microarray
Form: double-stranded DNA, one strand shown
Sample: in vitro
Tested at: not given
Setting: 8-mer, flanks averaged, mean of 2 arrays, mostly near background
Reference: not given
Direction: higher = stronger binding
Construct (chain): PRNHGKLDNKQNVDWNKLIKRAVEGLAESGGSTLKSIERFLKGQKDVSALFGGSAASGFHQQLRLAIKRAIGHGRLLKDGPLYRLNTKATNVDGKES
Oligonucleotide | E-score
TCCTTCGA | 0.0336
CTACTCCC | 0.0947
GATAGACC | -0.0629
AACCCCTG | -0.0161
GAAACAGC | 0.0705
TCTGAAAA | 0.0178
ATCCGACG | 0.0282

Sample 3
Target: Sal-like protein 4, full length isoform A (SALL4, Homo sapiens, UniProt Q9UJQ4, residues 1-1053)
Sequence of UniProt Q9UJQ4 (whole entry, looked up): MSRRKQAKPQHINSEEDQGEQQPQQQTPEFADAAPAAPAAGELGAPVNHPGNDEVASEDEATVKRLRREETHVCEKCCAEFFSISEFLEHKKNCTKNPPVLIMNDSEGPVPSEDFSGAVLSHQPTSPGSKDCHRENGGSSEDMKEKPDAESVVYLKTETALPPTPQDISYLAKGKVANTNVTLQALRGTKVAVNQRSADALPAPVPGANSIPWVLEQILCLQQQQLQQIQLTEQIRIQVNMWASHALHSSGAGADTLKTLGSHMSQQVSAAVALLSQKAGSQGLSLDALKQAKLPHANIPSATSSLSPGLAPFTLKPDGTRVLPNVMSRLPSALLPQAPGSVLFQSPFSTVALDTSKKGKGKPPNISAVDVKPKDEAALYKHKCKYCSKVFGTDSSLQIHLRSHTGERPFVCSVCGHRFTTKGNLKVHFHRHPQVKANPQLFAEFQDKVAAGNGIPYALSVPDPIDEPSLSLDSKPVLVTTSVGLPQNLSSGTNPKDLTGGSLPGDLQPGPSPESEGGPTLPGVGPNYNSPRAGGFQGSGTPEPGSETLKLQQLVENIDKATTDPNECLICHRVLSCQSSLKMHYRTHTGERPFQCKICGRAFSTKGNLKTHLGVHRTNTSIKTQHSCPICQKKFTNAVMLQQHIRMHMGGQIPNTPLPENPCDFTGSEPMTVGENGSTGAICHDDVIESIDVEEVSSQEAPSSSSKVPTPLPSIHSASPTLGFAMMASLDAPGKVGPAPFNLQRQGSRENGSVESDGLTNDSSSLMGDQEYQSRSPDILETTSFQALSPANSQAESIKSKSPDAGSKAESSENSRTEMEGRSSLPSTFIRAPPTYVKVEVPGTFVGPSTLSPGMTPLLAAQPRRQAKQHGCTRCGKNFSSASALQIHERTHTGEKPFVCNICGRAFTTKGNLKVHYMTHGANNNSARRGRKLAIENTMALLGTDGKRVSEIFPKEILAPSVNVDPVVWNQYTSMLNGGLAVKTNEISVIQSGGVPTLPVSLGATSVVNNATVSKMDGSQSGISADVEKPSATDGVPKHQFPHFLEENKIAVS
Technique: universal PBM
Form: double-stranded DNA, one strand shown
Sample: in vitro
Tested at: 600 nM
Setting: 8-mer, flanks averaged, mean of replicates
Direction: higher = stronger binding
Oligonucleotide | E-score
ATCACTAA | 0.17
TACGGGGA | -0.234
CACATGGG | -0.231
ACCTCTCG | -0.165

Mixed results
Molecule | target | assay | system | setting | how to read | quantity | value
PhoQ, residues 284 288 289 292 302 303 ASHLAV | PhoP, residues 12 14 15 18 19 TPWLV (Escherichia coli, UniProt P23836) | Sort-seq, item: YFP reporter | E. coli | PhoQ-PhoP variant library, together with: 10 µM Mg2+ | reference: high Mg2+ state, higher = stronger signaling | fold induction | 1.43

For quick reference, copied from above (sample 1):
Oligonucleotide | RBNS enrichment (R)
GGGAGUUCUACAGUCCGACGAUCUUGUUUCAGUUCUGUCUCCCAGAUAAUGUGAAAACGGUCCAGGAGAAGGCAGCUUCCUAUAUGCAGCGUGUGCUUUCUUAUUCUUAUUUUUAAUAUAUGACAGUUAUUUGUGGAAUUCUCGGGUGCCAA | 0.825
GGGAGUUCUACAGUCCGACGAUCUGAGGCCAAGAUGAGAAGUGACUCUCUCAAGGUCACACAGAUAGUGAUAGAACAAGAGCCCAGGCUUCCUGUUUCCAAGUCACCUGUGUUUCCUGGGACCAAAUAAUGAGUGGAAUUCUCGGGUGCCAA | 0.21
